Measured values of several laboratories.
Parts stem from different laboratories: compare values within a part only. Several values in a cell are separate wells, animals, samples, runs or records. ± marks the error that the study gave.

Sample 1 — organism: Arabidopsis thaliana; strain: Col-0; tested at: 3.125 µg/mL; notes: seed germination, single repetition
For `O=C(O)C1(O)Oc2cc(Cl)ccc2N(Cc2ccccc2)C1=O` (stereo not shown), the hypocotyl length was 2.11 cm and 2.13 cm and 2.1 cm and 2.12 cm and 2.07 cm.
`O=C(O)C1(O)Oc2cc(Br)ccc2N(Cc2ccccc2)C1=O` (stereo not shown) gave a hypocotyl length of 2.15 cm and 2.14 cm and 2.1 cm and 2.09 cm.
`O=C(O)C1Oc2cc(F)ccc2N(Cc2ccccc2)C1=O` (stereo not shown) has a hypocotyl length of 2.35 cm and 2.36 cm and 2.34 cm.
`COc1ccc2c(c1)OC(O)(C(=O)O)C(=O)N2Cc1ccccc1` (stereo not shown) has a hypocotyl length of 1.95 cm and 2 cm and 2.02 cm.

Sample 2 — species: mouse
SMILES: Cc1ncsc1-c1ccc(C(CO)NC(=O)C2CC(O)CN2C(=O)C(C(C)C)n2cc(-c3ccc(COc4c(-c5c(C)c(F)cc6[nH]ncc56)c(C5CC5)cc5c(N6CC7CC6CN7)nc(OC6CCOCC6)nc45)cc3)nn2)cc1 (stereo not shown)
It gave 96.9 mm3 and 177 mm3 and 149 mm3 and 109 mm3 and 112 mm3 for tumour volume (GP5d xenograft; 30 mg/kg twice weekly, day 11).
PK-1 xenograft; 30 mg/kg twice weekly, day 4 — tumour volume: 160 mm3 and 122 mm3 and 198 mm3 and 120 mm3 and 170 mm3.
For PK-1 xenograft; 30 mg/kg once weekly, day 14: tumour volume read 241 mm3 and 215 mm3 and 240 mm3 and 262 mm3 and 206 mm3.

Sample 3 — cell line: HCC1569; technique: in-cell western; item: CDK1 phospho-Thr14; tested at: 333.33 nM
For `Cc1ccc(O)c(C)c1-c1cnc2[nH]c(-c3cnc(N4CCC5(CC4)CC(N4CCN(c6ccc7c(c6F)CN(C6CCC(=O)NC6=O)C7=O)CC4)CO5)nc3)cc2c1C#N` (mixture of isomers), “pCDK1 (Thr14) level” read 95.6 RLU and 90.2 RLU.
Under “pCDK1 (Thr14) level”, `Cc1ccc(O)c(C)c1-c1cnc2[nH]c(-c3cnc(N4CCC(CN5CCN(c6ccc(NC7CCC(=O)NC7=O)c(F)c6)CC5)CC4)nc3)cc2c1C#N` (racemic) is recorded as 90.9% and 97.8%.
For `Cc1ccc(O)c(C)c1-c1cnc2[nH]c(-c3cnc(N4CCC(CCN5CCN(c6cc7c(cc6F)c(N6CCC(=O)NC6=O)nn7C)CC5)CC4)nc3)cc2c1C#N`, “pCDK1 (Thr14) level” read 124 RLU and 121 RLU.

Single results of other studies — action: inhibitor; cell line: CHO-BC cells
Target: Sodium-dependent neutral amino acid transporter B(0)AT1 (SLC6A19, Homo sapiens, UniProt Q695T7)
Sequence of UniProt Q695T7 (whole entry, looked up): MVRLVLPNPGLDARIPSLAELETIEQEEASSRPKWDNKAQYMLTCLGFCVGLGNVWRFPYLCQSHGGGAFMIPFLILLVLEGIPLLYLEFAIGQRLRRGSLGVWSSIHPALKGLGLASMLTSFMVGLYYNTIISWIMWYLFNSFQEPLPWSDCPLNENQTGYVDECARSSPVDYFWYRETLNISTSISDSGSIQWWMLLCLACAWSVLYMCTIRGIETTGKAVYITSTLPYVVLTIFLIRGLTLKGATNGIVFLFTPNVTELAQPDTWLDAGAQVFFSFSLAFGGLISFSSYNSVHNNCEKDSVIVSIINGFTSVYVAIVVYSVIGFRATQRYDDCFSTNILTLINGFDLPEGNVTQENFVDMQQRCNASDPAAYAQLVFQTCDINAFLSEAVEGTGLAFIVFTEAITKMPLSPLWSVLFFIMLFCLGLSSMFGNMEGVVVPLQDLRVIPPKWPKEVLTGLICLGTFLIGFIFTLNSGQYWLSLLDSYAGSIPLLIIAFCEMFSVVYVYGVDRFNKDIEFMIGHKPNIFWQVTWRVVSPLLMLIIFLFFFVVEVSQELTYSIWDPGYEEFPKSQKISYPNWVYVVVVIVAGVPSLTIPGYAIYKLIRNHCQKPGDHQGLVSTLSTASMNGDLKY
`Cc1cc(NCC(=O)NC(C)C)cc(C)c1I` gave an IC50 of 0.4 ± 0.1 µM (L-[14C]leucine uptake; added: L-leucine 150 µM).
`CC(C)NC(=O)COc1ccc(Br)cc1` gave an IC50 of 11 ± 3 µM (L-[14C]leucine uptake; added: L-leucine 150 µM).
With `CON(C)C(=O)COc1cc(C)c(Cl)c(C)c1` the activity was 109 ± 10% (FLIPR membrane potential; 30 µM, added: L-leucine 1.5 mM; reference: cinromide).

A few entries again (sample 3):
For `Cc1ccc(O)c(C)c1-c1cnc2[nH]c(-c3cnc(N4CCC5(CC4)CC(N4CCN(c6ccc7c(c6F)CN(C6CCC(=O)NC6=O)C7=O)CC4)CO5)nc3)cc2c1C#N` (mixture of isomers), “pCDK1 (Thr14) level” read 95.6 RLU and 90.2 RLU.
For `Cc1ccc(O)c(C)c1-c1cnc2[nH]c(-c3cnc(N4CCC(CCN5CCN(c6cc7c(cc6F)c(N6CCC(=O)NC6=O)nn7C)CC5)CC4)nc3)cc2c1C#N`, “pCDK1 (Thr14) level” read 124 RLU and 121 RLU.
